{"data": "Results from different studies", "organism": "Pseudomonas aeruginosa", "note": "Compare with care: the assays were run in different laboratories."}
{"SMILES": "CC[C@H](C)[C@H](NC(=O)[C@H](CCCNC(=N)N)NC(=O)[C@H](CCCCN)NC(=O)[C@H](CC(C)C)NC(=O)[C@H](CC(C)C)NC(=O)CN)C(=O)N[C@@H](CCCCN)C(=O)N[C@H](C(=O)N[C@@H](CC(C)C)C(=O)N[C@@H](CC(C)C)C(=O)NCCCC[C@H](NC(=O)[C@H](CC(C)C)NC(=O)[C@H](CC(C)C)NC(=O)[C@@H](NC(=O)[C@H](CCCCN)NC(=O)[C@@H](NC(=O)[C@H](CCCNC(=N)N)NC(=O)[C@H](CCCCN)NC(=O)[C@H](CC(C)C)NC(=O)[C@H](CC(C)C)NC(=O)CN)[C@@H](C)CC)[C@@H](C)O)C(=O)NCCCC[C@H](NC(=O)[C@H](CCCCNC(=O)[C@H](CC(C)C)NC(=O)[C@H](CC(C)C)NC(=O)[C@@H](NC(=O)[C@H](CCCCN)NC(=O)[C@@H](NC(=O)[C@H](CCCNC(=N)N)NC(=O)[C@H](CCCCN)NC(=O)[C@H](CC(C)C)NC(=O)[C@H](CC(C)C)NC(=O)CN)[C@@H](C)CC)[C@@H](C)O)NC(=O)[C@H](CC(C)C)NC(=O)[C@H](CC(C)C)NC(=O)[C@@H](NC(=O)[C@H](CCCCN)NC(=O)[C@@H](NC(=O)[C@H](CCCNC(=N)N)NC(=O)[C@H](CCCCN)NC(=O)[C@H](CC(C)C)NC(=O)[C@H](CC(C)C)NC(=O)CN)[C@@H](C)CC)[C@@H](C)O)C(N)=O)[C@@H](C)O", "test": "checkerboard", "test system": "ATCC 27853", "setting": "with: polymyxin B", "measurement": "FIC index", "result": 0.25}
{"SMILES": "Nc1ccccc1C(=O)NS(=O)(=O)NC[C@H]1O[C@@H](n2cnc3c(N)ncnc32)[C@H](O)[C@@H]1O", "test": "PQS production, LC-MS/MS", "test system": "PA14", "setting": "1500 µM, 20 h", "measurement": "inhibition", "result": "92%"}
{"SMILES": "COc1ccc(-c2ccn(CC[C@](C)(C(=O)NO)S(C)(=O)=O)c(=O)c2)c(F)c1", "test": "microbial growth", "test system": "PAO1", "measurement": "MIC90", "result": "0.5 mg/L"}
{"SMILES": "CC[C@H](C)[C@H](NC(=O)[C@H](CCCCN)NC(=O)[C@H](CCCCN)NC(=O)[C@H](CC(C)C)NC(=O)[C@H](CCCCN)NC(=O)[C@H](CCC(=O)O)NC(=O)[C@H](CCCCN)NC(=O)[C@@H](NC(=O)[C@H](CCCCN)NC(=O)[C@H](CC(N)=O)NC(=O)[C@H](CCCNC(=N)N)NC(=O)[C@H](Cc1ccccc1)NC(=O)[C@H](CCCCN)NC(=O)[C@H](CCCNC(=N)N)NC(=O)[C@H](CC(C)C)NC(=O)[C@H](CCCNC(=N)N)NC(=O)[C@H](CCCCN)NC(=O)[C@H](CCCNC(=N)N)NC(=O)[C@H](CC(C)C)NC(=O)[C@@H](N)CC(C)C)[C@@H](C)CC)C(=O)NCC(=O)N[C@@H](CCC(N)=O)C(=O)N[C@@H](CCCCN)C(=O)N[C@H](C(=O)N[C@@H](CCC(N)=O)C(=O)NCC(=O)N[C@@H](Cc1ccccc1)C(=O)N[C@H](C(=O)N1CCC[C@H]1C(=O)N[C@@H](CCCCN)C(=O)N[C@@H](CC(C)C)C(=O)N[C@H](C(=O)N1CCC[C@H]1C(=O)N[C@@H](CCCNC(=N)N)C(=O)N[C@H](C(=O)N[C@@H](CCC(=O)O)C(=O)N[C@@H](CO)C(=O)O)[C@@H](C)O)C(C)C)C(C)C)[C@@H](C)CC", "test": "inhibition zone method", "test system": "11082603, LB 0.8% agar with 154 mM NaCl", "setting": "overnight, 37 °C", "measurement": "lethal concentration", "result": "2.89 µM"}
{"SMILES": "CCCC(=O)NCC(=O)N[C@@H](CC(C)C)C(=O)N[C@@H](CC(C)C)C(=O)N[C@@H](CCCCN)C(=O)N[C@@H](CCCNC(=N)N)C(=O)N[C@H](C(=O)N[C@@H](CCCCN)C(=O)N[C@H](C(=O)N[C@@H](CC(C)C)C(=O)N[C@@H](CC(C)C)C(=O)NCCCC[C@H](NC(=O)[C@H](CCCCNC(=O)[C@H](CC(C)C)NC(=O)[C@H](CC(C)C)NC(=O)[C@@H](NC(=O)[C@H](CCCCN)NC(=O)[C@@H](NC(=O)[C@H](CCCNC(=N)N)NC(=O)[C@H](CCCCN)NC(=O)[C@H](CC(C)C)NC(=O)[C@H](CC(C)C)NC(=O)CNC(=O)CCC)[C@@H](C)CC)[C@@H](C)O)NC(=O)[C@H](CC(C)C)NC(=O)[C@H](CC(C)C)NC(=O)[C@@H](NC(=O)[C@H](CCCCN)NC(=O)[C@@H](NC(=O)[C@H](CCCNC(=N)N)NC(=O)[C@H](CCCCN)NC(=O)[C@H](CC(C)C)NC(=O)[C@H](CC(C)C)NC(=O)CNC(=O)CCC)[C@@H](C)CC)[C@@H](C)O)C(N)=O)[C@@H](C)O)[C@@H](C)CC", "test": "checkerboard", "test system": "ATCC 27853", "setting": "with: polymyxin B", "measurement": "FIC index", "result": 0.375}
{"SMILES": "CC[C@H](C)[C@H](NC(=O)[C@H](Cc1c[nH]cn1)NC(=O)[C@H](CCCCNC(=O)[C@@H](NC(=O)[C@H](CCCCN)NC(=O)CSC[C@H](NC(=O)[C@H](Cc1ccccc1)NC(=O)[C@H](CCCCNC(=O)[C@H](CC(C)C)NC(=O)[C@@H]1CCCN1C(=O)[C@H](CCCCN)NC(=O)CCS[C@@H]1O[C@H](CO)[C@H](O)[C@H](O)[C@H]1O)NC(=O)[C@H](CC(C)C)NC(=O)[C@@H]1CCCN1C(=O)[C@H](CCCCN)NC(=O)CCS[C@@H]1O[C@H](CO)[C@H](O)[C@H](O)[C@H]1O)C(N)=O)[C@@H](C)CC)NC(=O)[C@@H](NC(=O)[C@H](CCCCN)NC(=O)CSC[C@H](NC(=O)[C@H](Cc1ccccc1)NC(=O)[C@H](CCCCNC(=O)[C@H](CC(C)C)NC(=O)[C@@H]1CCCN1C(=O)[C@H](CCCCN)NC(=O)CCS[C@@H]1O[C@H](CO)[C@H](O)[C@H](O)[C@H]1O)NC(=O)[C@H](CC(C)C)NC(=O)[C@@H]1CCCN1C(=O)[C@H](CCCCN)NC(=O)CCS[C@@H]1O[C@H](CO)[C@H](O)[C@H](O)[C@H]1O)C(N)=O)[C@@H](C)CC)C(N)=O", "test": "biofilm formation", "test system": "PAO1", "setting": "24 h", "measurement": "MBIC", "result": "30 µM"}
{"SMILES": "CC(C)C[C@@H]1NC(=O)[C@H](CCCCN)NC(=O)CSC[C@@H](C(=O)N[C@@H](CCCCN)C(N)=O)NC(=O)[C@H](CCCCN)NC(=O)[C@H](CC(C)C)NC(=O)[C@H](CC(C)C)NC(=O)[C@@H]2CSCC(=O)N[C@@H](CCCCN)C(=O)N[C@@H](CC(C)C)C(=O)N[C@@H](CCCCN)C(=O)N[C@@H](CCCCNC(=O)[C@H](CCCCN)NC1=O)C(=O)N[C@@H](CCCCN)C(=O)N[C@@H](CC(C)C)C(=O)N[C@@H](CC(C)C)C(=O)N2", "test system": "PAO1", "setting": "24 to 25 h", "measurement": "minimal biofilm inhibitory concentration", "result": "8 µg/mL"}
{"SMILES": "C[C@H]1COc2c(N3CCN(C)CC3)c(F)cc3c(=O)c(C(=O)N[C@@H](CCCNC(=N)N)C(=O)N[C@@H](Cc4ccc(-c5ccccc5)cc4)C(=O)N[C@@H](CCCNC(=N)N)C(=O)N[C@@H](Cc4ccc(-c5ccccc5)cc4)C(=O)N[C@@H](CCCNC(=N)N)C(N)=O)cn1c23", "test system": "ATCC 3197", "how to read": "relative to: IC50 MDCK cells over MIC", "measurement": "selectivity index", "result": 4.4}
{"SMILES": "CC[C@H](C)[C@H](NC(=O)[C@H](CCCCN)NC(=O)[C@H](CCCCN)NC(=O)[C@H](CC(C)C)NC(=O)[C@H](CCCCN)NC(=O)[C@H](CCC(=O)O)NC(=O)[C@H](CCCCN)NC(=O)[C@@H](NC(=O)[C@H](CCCCN)NC(=O)[C@H](CC(N)=O)NC(=O)[C@H](CCCNC(=N)N)NC(=O)[C@H](Cc1ccccc1)NC(=O)[C@H](CCCCN)NC(=O)[C@H](CCCNC(=N)N)NC(=O)[C@H](CC(C)C)NC(=O)[C@H](CCCNC(=N)N)NC(=O)[C@H](CCCCN)NC(=O)[C@H](CCCNC(=N)N)NC(=O)[C@H](CC(C)C)NC(=O)[C@@H](N)CCCNC(=N)N)[C@@H](C)CC)C(=O)NCC(=O)N[C@@H](CCC(N)=O)C(=O)N[C@@H](CCCCN)C(=O)N[C@H](C(=O)N[C@@H](CCC(N)=O)C(=O)NCC(=O)N[C@@H](Cc1ccccc1)C(=O)N[C@H](C(=O)N1CCC[C@H]1C(=O)N[C@@H](CCCCN)C(=O)N[C@@H](CC(C)C)C(=O)N[C@@H](CCC(N)=O)C(=O)N1CCC[C@H]1C(=O)N[C@@H](CO)C(=O)N[C@@H](CCCCN)C(=O)N[C@@H](CCC(N)=O)C(=O)N[C@@H](CO)C(=O)O)C(C)C)[C@@H](C)CC", "test": "inhibition zone", "test system": "O1", "setting": "LB agar, overnight", "measurement": "lethal concentration", "result": "3 µM"}
{"SMILES": "CC(CCCOC(=O)CCC[N+](C)(C)C)C1CCC2C3CCC4CC(OC(=O)CCC[N+](C)(C)C)CCC4(C)C3CCC12C (stereo not shown)", "test system": "ATCC 27853", "how to read": "relative to: HC50 over MIC", "measurement": "selectivity index", "result": 3}
{"SMILES": "CN1CC(=O)N=C1N.C[C@H](CCC(=O)O)[C@H]1CC[C@H]2[C@@H]3CC[C@@H]4C[C@H](O)CC[C@]4(C)[C@H]3CC[C@]12C", "test system": "TISTR357", "setting": "1 mg per disc, 18 to 24 h, 37 °C", "measurement": "antibacterial activity", "result": "inactive"}
{"SMILES": "CC[C@H](C)[C@H](NC(=O)[C@H](CCCCN)NC(=O)[C@H](CCCCN)NC(=O)[C@H](CC(C)C)NC(=O)[C@H](CCCCN)NC(=O)[C@H](CCC(=O)O)NC(=O)[C@H](CCCCN)NC(=O)[C@@H](NC(=O)[C@H](CCCCN)NC(=O)[C@H](CC(N)=O)NC(=O)[C@H](CCCNC(=N)N)NC(=O)[C@H](Cc1ccccc1)NC(=O)[C@H](CCCCN)NC(=O)[C@H](CCCNC(=N)N)NC(=O)[C@H](CC(C)C)NC(=O)[C@H](CCCNC(=N)N)NC(=O)[C@H](CCCCN)NC(=O)[C@H](CCCNC(=N)N)NC(=O)[C@H](CC(C)C)NC(=O)CN)[C@@H](C)CC)C(=O)NCC(=O)N[C@@H](CCC(N)=O)C(=O)N[C@@H](CCCCN)C(=O)N[C@H](C(=O)N[C@@H](CCC(N)=O)C(=O)NCC(=O)N[C@@H](Cc1ccccc1)C(=O)N[C@H](C(=O)N1CCC[C@H]1C(=O)N[C@@H](CCCCN)C(=O)N[C@@H](CC(C)C)C(=O)N[C@@H](C)C(=O)N1CCC[C@H]1C(=O)N[C@@H](CCCNC(=N)N)C(=O)N[C@H](C(=O)N[C@@H](CC(=O)O)C(=O)N[C@@H](Cc1ccc(O)cc1)C(=O)O)[C@@H](C)O)C(C)C)[C@@H](C)CC", "test": "inhibition zone", "test system": "FRD1", "setting": "LB agar, overnight", "measurement": "lethal concentration", "result": "3.03 µM"}
{"SMILES": "CC[C@H](C)[C@H](NC(=O)[C@H](CCCNC(=N)N)NC(=O)[C@@H](NC(=O)[C@H](C)NC(=O)[C@@H](NC(=O)[C@@H](NC(=O)[C@H](CC(C)C)NC(=O)[C@H](CCCNC(=N)N)NC(=O)[C@@H](N)C(C)C)[C@@H](C)CC)C(C)C)C(C)C)C(=O)N[C@@H](Cc1c[nH]c2ccccc12)C(=O)N[C@@H](CCCNC(=N)N)C(=O)N[C@@H](CCCNC(=N)N)C(N)=O", "setting": "with: serine hydroxamate 500 µM", "measurement": "concentration abolishing (p)ppGpp accumulation", "result": "5 µg/mL"}
{"note": "Excerpt of the above:"}
{"SMILES": "CCCC(=O)NCC(=O)N[C@@H](CC(C)C)C(=O)N[C@@H](CC(C)C)C(=O)N[C@@H](CCCCN)C(=O)N[C@@H](CCCNC(=N)N)C(=O)N[C@H](C(=O)N[C@@H](CCCCN)C(=O)N[C@H](C(=O)N[C@@H](CC(C)C)C(=O)N[C@@H](CC(C)C)C(=O)NCCCC[C@H](NC(=O)[C@H](CCCCNC(=O)[C@H](CC(C)C)NC(=O)[C@H](CC(C)C)NC(=O)[C@@H](NC(=O)[C@H](CCCCN)NC(=O)[C@@H](NC(=O)[C@H](CCCNC(=N)N)NC(=O)[C@H](CCCCN)NC(=O)[C@H](CC(C)C)NC(=O)[C@H](CC(C)C)NC(=O)CNC(=O)CCC)[C@@H](C)CC)[C@@H](C)O)NC(=O)[C@H](CC(C)C)NC(=O)[C@H](CC(C)C)NC(=O)[C@@H](NC(=O)[C@H](CCCCN)NC(=O)[C@@H](NC(=O)[C@H](CCCNC(=N)N)NC(=O)[C@H](CCCCN)NC(=O)[C@H](CC(C)C)NC(=O)[C@H](CC(C)C)NC(=O)CNC(=O)CCC)[C@@H](C)CC)[C@@H](C)O)C(N)=O)[C@@H](C)O)[C@@H](C)CC", "test": "checkerboard", "test system": "ATCC 27853", "setting": "with: polymyxin B", "measurement": "FIC index", "result": 0.375}
{"SMILES": "CC(CCCOC(=O)CCC[N+](C)(C)C)C1CCC2C3CCC4CC(OC(=O)CCC[N+](C)(C)C)CCC4(C)C3CCC12C (stereo not shown)", "test system": "ATCC 27853", "how to read": "relative to: HC50 over MIC", "measurement": "selectivity index", "result": 3}
